Measurements gathered from unrelated publications.
Lines come from different studies, so protocols differ. pIC50: −log10 of the molar value.
Cell line: HepG2

| Compound | observed | method | time | setting | pIC50 |
| --- | --- | --- | --- | --- | --- |
| COC(=O)C1=Cc2ccccc2S1(=O)=O | cell growth or viability | WST-1 | 24 h | – | 4.49 |
| COC1=CC(c2ccc[nH]2)=NC1=CNC1CCCCC1 | cell growth or viability | resazurin | – | – | 4.82 |
| CC[C@@H](C)[C@@H]1NC(=O)[C@@H](Cc2ccccc2)NC(=O)[C@@H]2CCCN2C(=O)[C@H]([C@H](C)CC)NC(=O)[C@@H](Cc2ccccc2)NC(=O)[C@@H]2CCCN2C1=O | cytotoxicity | – | 48 h | – | < 4.00 |
| C=C1CC[C@]2(C(=O)O)CC[C@]3(C)C(=CC[C@@H]4[C@@]5(C)CC[C@H](O)C(C)(C)[C@@H]5CC[C@]43C)[C@@H]2C1 | cell growth or viability | MTT | 72 h | – | 4.28 |
| CCCCCCN=Cc1[nH]c(-c2ccc[nH]2)cc1OC | cell growth or viability | resazurin | – | – | 4.57 |
| CC1(C)[C@@H](O)CC[C@]2(C)[C@H]3CC=C4[C@@H]5C[C@](C)(CO)CC[C@]5(C(=O)O)CC[C@@]4(C)[C@]3(C)CC[C@@H]12 | cell growth or viability | MTT | 72 h | – | < 4.00 |
| O=C(C1CCN(c2nnnn2-c2ccccc2)CC1)N1CCCc2ccccc21 | cell growth or viability | ATP luminescence | 72 h | – | 4.40 |
| CCC1=C(C)C(c2ccc[nH]2)=NC1=CNC12CC3CC(CC(C3)C1)C2 | cell growth or viability | resazurin | – | – | 5.35 |
| CC1(C(=O)O)CCC2(C(=O)O)CCC3(C)C(=CCC4C5(C)CCC(O)C(C)(C)C5CCC43C)C2C1 (stereo not shown) | cell growth or viability | MTT | 72 h | – | 4.13 |
| C#CCOc1ccc(C=NNC(=N)NN=Cc2ccc(OCC#C)cc2)cc1 | cytotoxicity | resazurin | 24 h | 10% FBS | < 3.70 |

For quick reference, copied from above:
| Compound | observed | method | time | setting | pIC50 |
| --- | --- | --- | --- | --- | --- |
| CCC1=C(C)C(c2ccc[nH]2)=NC1=CNC12CC3CC(CC(C3)C1)C2 | cell growth or viability | resazurin | – | – | 5.35 |
